{"data": "Published values pooled from the literature", "target": "Glycogen synthase kinase-3 beta (GSK3B, Homo sapiens, UniProt P49841)", "note": "Lines come from different studies, so protocols differ. Several values in a cell are separate wells, animals, samples, runs or records.", "UniProt P49841, sequence (whole entry, looked up)": "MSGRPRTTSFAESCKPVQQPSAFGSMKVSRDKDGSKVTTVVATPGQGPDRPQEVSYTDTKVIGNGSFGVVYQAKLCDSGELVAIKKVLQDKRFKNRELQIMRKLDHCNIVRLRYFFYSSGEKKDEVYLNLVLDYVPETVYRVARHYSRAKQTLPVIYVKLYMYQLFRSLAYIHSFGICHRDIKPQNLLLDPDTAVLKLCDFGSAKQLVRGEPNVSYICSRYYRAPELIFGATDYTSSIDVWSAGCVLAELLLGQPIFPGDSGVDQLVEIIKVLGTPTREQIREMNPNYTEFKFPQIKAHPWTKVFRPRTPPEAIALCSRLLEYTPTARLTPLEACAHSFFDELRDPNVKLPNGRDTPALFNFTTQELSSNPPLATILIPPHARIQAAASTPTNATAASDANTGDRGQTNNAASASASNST"}
{"Structure (SMILES)": "c1ccc2c(Nc3cc(C4CCC4)[nH]n3)nc(Nc3ccc4nc[nH]c4c3)nc2c1", "assay": "enzyme activity, inhibitor", "setting": "0.25 µM", "quantity": "remaining activity", "result": "16%"}
{"Structure (SMILES)": "Cc1cccc(-c2ccc3nc(NC(=O)C4CCCO4)nn3c2)c1 (stereo not shown)", "assay": "enzyme activity, Dundee kinase panel", "setting": "10 µM", "quantity": "remaining activity", "result": "70%"}
{"Structure (SMILES)": "COc1ccc(NC(=O)Nc2ccc3c(c2)C(=O)N(C(C)CO)CC(C)C(CN(C)Cc2ccc4c(c2)OCO4)O3)cc1 (stereo not shown)", "assay": "binding, competition with immobilised ligand", "setting": "10 µM", "quantity": "remaining binding", "result": "94%"}
{"Structure (SMILES)": "C=C1CCCCCCCCCC(CO)C1=O (stereo not shown)", "assay": "cell-free assay", "setting": "10 µM", "quantity": "remaining signal", "result": "100%"}
{"Structure (SMILES)": "Cc1cccc(O[C@H]2CCC[C@@H](C(C)CNCc3ccncc3)C2)c1 (relative stereo)", "assay": "enzyme activity, inhibitor", "setting": "1 µM", "quantity": "inhibition", "result": "-9%"}
{"Structure (SMILES)": "O=c1c(-c2ccc(Cl)c(CN3CCOCC3)c2)coc2cc(O)ccc12", "assay": "enzyme activity, inhibitor", "setting": "1 µM", "quantity": "remaining activity", "result": "71%"}
{"Structure (SMILES)": "NC(=O)[C@@H](O)C[C@H]1CCc2sc3ncnc(O[C@H]4CC[C@H](N5CCOCC5)CC4)c3c21", "assay": "enzyme activity, inhibitor", "setting": "10 µM", "quantity": "inhibition", "result": "0%"}
{"Structure (SMILES)": "COc1ccc(O)cc1-c1c[nH]c2ncc(-c3cncc(C(=O)N(C)C)c3)cc12", "assay": "binding, competition with immobilised ligand", "setting": "0.2 µM", "quantity": "inhibition", "result": "8.08%"}
{"Structure (SMILES)": "Cc1ccc(-c2c(/C=C(\\C#N)C(=O)NC(C)C)n(CCCO)c3ncnc(N)c23)cc1", "assay": "cell-free assay, competition with immobilised ligand", "setting": "1 µM", "quantity": "remaining binding", "result": "100%"}
{"Structure (SMILES)": "N[C@H]1CC[C@H](Nc2nccc(-c3cccnc3Oc3ccc(NC(=O)NC4CC4)c4ccccc34)n2)CC1", "assay": "kinobead competition pulldown", "system": "HEK293/HCT116 lysate mixture", "setting": "10 µM, 1 h, 4 °C", "scale": "lower = stronger competition", "quantity": "log2 LFQ intensity", "result": "28.9 and 29 and 29.3"}
{"Structure (SMILES)": "COc1cc(-n2cc3cc(F)cc(C(N)=O)c3n2)cc(Cl)c1C1CC(O)(CCO)Cc2ccccc21 (stereo not shown)", "assay": "enzyme activity, inhibitor", "setting": "10 µM", "quantity": "inhibition", "result": "5.35%"}
{"Structure (SMILES)": "CNC(=O)C[C@H](Cc1ccc(C#N)cc1)NC(=O)c1cc(-c2ccc(CN[C@H](C)c3ccc(C)cc3)o2)ccc1Cl", "assay": "enzyme activity, inhibitor", "setting": "1 µM", "quantity": "activity vs control", "result": "99%"}
{"Structure (SMILES)": "C=CC(=O)Nc1cccc(-c2cnc3[nH]cc(C(=O)NC(C)(C)C)c3n2)c1", "assay": "kinase activity", "setting": "0.1 µM", "quantity": "inhibition", "result": "64% and 59%"}
{"Structure (SMILES)": "COCC12C(=O)NC3C4(C(OC)CC1O)C1CC5(O)C(OC)C(O)C(OC(C)=O)(C1C5OC(=O)c1ccccc1)C3(O)C(OC)C24 (stereo not shown)", "assay": "kinase activity, inhibitor, ProQinase kinase profiling", "setting": "25 µM", "scale": "baseline: control", "quantity": "remaining activity", "result": "93% and 95%"}
{"Structure (SMILES)": "CC(=O)N1c2ccc(-c3ccc(CNC(=O)c4cn5cc(-c6cnc(N)nc6)nc(N6CCOCC6)c5n4)cc3)cc2CC[C@@H]1C", "assay": "binding, competition with immobilised ligand", "setting": "10 µM", "quantity": "remaining binding", "result": "88%"}
{"Structure (SMILES)": "O=C=[N][Ru-4]123([n]4c5ccc(O)cc5c5c6c(c7cc(F)c[n+]1c7c54)C(=O)NC6=O)[S+]1CC[S+]2CC[S+]3CC1 (stereo not shown)", "assay": "enzyme activity", "setting": "100 nM, human enzyme, added: 10 µM ATP", "scale": "baseline: untreated", "quantity": "remaining activity", "result": "90%"}
{"Structure (SMILES)": "Cc1cnc2nc1Nc1cccc(c1)COC/C=C/COCc1cc(ccc1OCCN1CCOCC1)N2", "assay": "binding", "setting": "0.1 µM", "quantity": "remaining binding", "result": "92%"}
{"Structure (SMILES)": "C=CC(=O)Nc1cc(-c2nn(C3CCN(CCNC(=O)[C@H](C)CCC45CC6CC(CC(C6)C4)C5)CC3)c3ncnc(N)c23)ccc1Oc1ccccc1", "assay": "inhibitor, KiNativ profiling", "system": "biochemical", "setting": "2 µM", "quantity": "inhibition", "result": "20.5%"}
{"Structure (SMILES)": "CNC(=O)C1CCN(c2cc(C)c(F)cc2NC(=O)c2ccc(-c3cc(O)ccc3C)c(C)c2)CC1", "assay": "binding, competition with immobilised ligand", "setting": "1 µM", "quantity": "remaining binding", "result": "94%"}
{"Structure (SMILES)": "CC(C)=CC1OC(C)(C)C2C=C3C(=O)C(Cl)=CC(O)C3C3C(O)C4OC4C(=O)C132 (stereo not shown)", "assay": "cell-free assay, competition with immobilised ligand", "setting": "10 µM", "quantity": "remaining binding", "result": "80%"}
{"Structure (SMILES)": "O=C(O)CCC(=O)c1cccc(NS(=O)(=O)c2c[nH]c3ncccc23)c1", "assay": "kinase activity, radiometric", "setting": "10 µM", "quantity": "remaining activity", "result": "99%"}
{"Structure (SMILES)": "COc1cc(Nc2nccc(-c3cnn4nc(OC)ccc34)n2)cc(C(F)(F)F)c1", "assay": "binding", "setting": "1 µM", "quantity": "remaining binding", "result": "100%"}
{"Structure (SMILES)": "Cc1ccc(C)c(-c2ccc3nc(NC(=O)C4CCCCC4)nn3c2)c1", "assay": "enzyme activity, Dundee kinase panel", "setting": "10 µM", "quantity": "remaining activity", "result": "78%"}
{"Structure (SMILES)": "CN1CC[C@@H](COc2cnc(C#N)cc2-c2ccn3nc(NC(=O)C4CC4)cc3c2)C1", "assay": "enzyme activity, inhibitor", "setting": "1 µM", "quantity": "inhibition", "result": "-11%"}
{"Structure (SMILES)": "CN1CCN(Cc2ccc(NC(=O)c3cccc(C#Cc4cnc(N)c5ncccc45)c3)cc2C(F)(F)F)CC1", "assay": "cell-free assay, competition with immobilised ligand", "setting": "0.5 µM", "quantity": "remaining binding", "result": "63%"}
{"note": "Repeated from above:"}
{"Structure (SMILES)": "COCC12C(=O)NC3C4(C(OC)CC1O)C1CC5(O)C(OC)C(O)C(OC(C)=O)(C1C5OC(=O)c1ccccc1)C3(O)C(OC)C24 (stereo not shown)", "assay": "kinase activity, inhibitor, ProQinase kinase profiling", "setting": "25 µM", "scale": "baseline: control", "quantity": "remaining activity", "result": "93% and 95%"}
{"Structure (SMILES)": "CC(=O)N1c2ccc(-c3ccc(CNC(=O)c4cn5cc(-c6cnc(N)nc6)nc(N6CCOCC6)c5n4)cc3)cc2CC[C@@H]1C", "assay": "binding, competition with immobilised ligand", "setting": "10 µM", "quantity": "remaining binding", "result": "88%"}
